Assay results collected from several papers.
Each numbered part is a random draw from the data of one study; scales do not carry over between parts. Positions count from the first letter of the parent shown.

Set 1 — method: universal PBM; form: double-stranded DNA, one strand shown; medium: in vitro; concentration: 600 nM; reading: higher = stronger binding
Target: Sal-like protein 4, full length isoform A (SALL4, Homo sapiens, UniProt Q9UJQ4, residues 1-1053)
Chain of UniProt Q9UJQ4 (whole entry, looked up): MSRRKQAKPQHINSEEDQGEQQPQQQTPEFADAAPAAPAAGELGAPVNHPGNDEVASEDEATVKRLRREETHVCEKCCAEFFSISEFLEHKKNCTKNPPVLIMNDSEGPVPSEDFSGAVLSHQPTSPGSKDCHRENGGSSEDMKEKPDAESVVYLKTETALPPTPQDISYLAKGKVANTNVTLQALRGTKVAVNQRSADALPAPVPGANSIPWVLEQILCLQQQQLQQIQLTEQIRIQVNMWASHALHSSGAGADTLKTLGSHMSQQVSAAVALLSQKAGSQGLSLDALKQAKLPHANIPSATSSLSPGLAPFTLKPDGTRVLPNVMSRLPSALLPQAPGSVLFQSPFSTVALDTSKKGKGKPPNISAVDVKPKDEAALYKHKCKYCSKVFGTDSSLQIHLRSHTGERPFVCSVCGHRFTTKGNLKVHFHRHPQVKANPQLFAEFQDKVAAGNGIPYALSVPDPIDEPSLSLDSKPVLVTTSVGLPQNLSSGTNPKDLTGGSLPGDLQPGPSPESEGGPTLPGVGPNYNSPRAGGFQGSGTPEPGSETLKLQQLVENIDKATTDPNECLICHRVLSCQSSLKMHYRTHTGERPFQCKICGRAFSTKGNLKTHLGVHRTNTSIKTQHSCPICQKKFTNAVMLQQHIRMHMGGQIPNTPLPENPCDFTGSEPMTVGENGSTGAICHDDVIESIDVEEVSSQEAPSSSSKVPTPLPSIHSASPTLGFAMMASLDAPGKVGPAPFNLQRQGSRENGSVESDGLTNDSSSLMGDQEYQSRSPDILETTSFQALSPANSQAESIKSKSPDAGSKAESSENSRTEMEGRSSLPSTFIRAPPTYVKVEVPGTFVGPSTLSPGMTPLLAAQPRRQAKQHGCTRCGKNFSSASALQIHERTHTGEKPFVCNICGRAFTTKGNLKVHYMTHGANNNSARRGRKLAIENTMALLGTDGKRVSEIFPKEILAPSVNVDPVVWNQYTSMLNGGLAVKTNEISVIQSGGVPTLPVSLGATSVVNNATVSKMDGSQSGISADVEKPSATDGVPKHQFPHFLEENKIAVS
Setting: 8-mer, flanks averaged, mean of replicates
| Oligonucleotide | E-score |
| --- | --- |
| ACCCCCCA | -0.264 |
| ACCCTTAC | 0.0112 |
| ACGGCTAT | -0.0109 |
| GAGCTACC | -0.082 |
| GTCCACAC | -0.147 |
| ACGTCGGA | -0.131 |
| CCCGGACG | -0.395 |
| CACCAGAG | -0.223 |
| AGAACATA | 0.237 |
| CGATTGCA | 0.0675 |
| AGAACGCA | -0.0273 |
| CGATCTTA | -0.113 |
| ACTGGTGG | -0.241 |
| GCGCACTA | -0.219 |
| ACGCCCCG | -0.355 |
| CCCATCGC | -0.238 |
| AGCCAAGG | -0.128 |
| TGTTTTAA | 0.329 |

Set 2 — method: RNA Bind-n-Seq; form: RNA; medium: in vitro; concentration: 365 nM; baseline: no-protein control; reading: higher = stronger binding
Target: RNA binding protein fox-1 homolog 2, RRM domain, GST-SBP tag (RBFOX2, Homo sapiens, UniProt O43251-10, residues 100-194)
Setting: natural RNA segment, single round, ends assumed
Target sequence (chain): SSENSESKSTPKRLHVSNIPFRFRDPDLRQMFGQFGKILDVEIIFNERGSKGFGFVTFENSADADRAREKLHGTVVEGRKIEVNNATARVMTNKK
| Oligonucleotide | RBNS enrichment (R) |
| --- | --- |
| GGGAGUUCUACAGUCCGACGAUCUGGAGAAACACACACCUGACACUAUCCACAGAUAUAGUCAAGUAGAUUUGGAUAGAGAAUACUAUUUCCAAAGUAGUGUUUAGCUCAUCUAGGGGGAUGUGUUUAUAUAUUGGAAUUCUCGGGUGCCAA | 0.365 |
| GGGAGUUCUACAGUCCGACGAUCUCUUAAAUUUCCUGAUAUUUAUGUACAUAUAGUAAGAUAACUGAUAAGUCUUAGAUGUUUGAGUGAAGCACUGCUACAAUAGUAAUAGUUUGGCUAGAUCUUAAAGCUGUUGGAAUUCUCGGGUGCCAA | 0.367 |
| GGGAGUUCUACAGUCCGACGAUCCUAAUCUGAAAUACACAUAAAUGUCAGUUACAGAGGAACAUUGUUGGGGGCAGGAGGUAAAGAAACAUCUUAGAGAAAUCCACUUUACUAUCAAGUUCACAACCAGUUUUUGGAAUUCUCGGGUGCCAA | 0.419 |
| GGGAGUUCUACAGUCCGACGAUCAAUUUCUGGGAGAAAAAAAAUUGAGGAAAUAAAGUUAAAAAAUUGACAUUCAUUGAGCCAAAAGAGAUGUGGAGAAACAUUUUUCACCUUUCUGUUUGGCCUGAUUAACAUGGAAUUCUCGGGUGCCAA | 0.45 |
| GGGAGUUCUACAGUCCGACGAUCGAAACAGGUUUCUCUCAGUGGCACAUUUUGCUUUUUCUUAGCCCUCAAAUACAUUGCCUCGGCAUGAACAUUAUUGUUAAUAUAAAUUGCACAUGGUCAUCGAGUGAAUUUGGAAUUCUCGGGUGCCAA | 0.307 |
| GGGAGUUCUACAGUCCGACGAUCCCUAUCAGGAGGAUUCCUUCACAAUGUAUUUUAUUUGCUAGACUUUGGUUGGGAGGGAAAAGGACAUUAAUUUGAAGUUUCAUGUUAUUCAUGCCAGGAUUGUUUGAUAGUGGAAUUCUCGGGUGCCAA | 1.13 |
| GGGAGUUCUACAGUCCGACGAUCUUGGCUAACCCCACUGAAGGCACAUUUCUAGAUGAUGCCGUGUGUGGUCAAUACAUUGCUUUCAUGUUUUAAAUUUAAGGAAAAAUUUUAUCUGAUAUUUUUCCAAAUUAUGGAAUUCUCGGGUGCCAA | 0.512 |
| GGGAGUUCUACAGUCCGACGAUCUGAUUCUUCUCGUUUGAAAGAUGAGCAGAUUAGAACGCAGAGAGUACAGAUUGUGGGAAGAAGCAGAAACACAAUUCAGAACACCGUCUUCUCCACCCACAGUCCAACUCUGGAAUUCUCGGGUGCCAA | 0.271 |
| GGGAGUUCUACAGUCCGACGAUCUCCUUUUUCUCUAGGGAGAAGACAUUGUCUUGGAGAACAGCUGGCUCGAAUGGAAAUGUUCUUGUUUUUUACAUCAUUACUUCAGCAAUUUCAUUUGCAUUUUCCACAUGUGGAAUUCUCGGGUGCCAA | 0.313 |
| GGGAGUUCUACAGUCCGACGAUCAAGCUGACCAUGCAGCUCGCUGCUGGCCCCCAGUAAGCACCCCUUCCCACCGUCCACUCCCCGUCCCCGGGGGCCUGCCCUCAGUCUAAGCUUUGGAACACUCUCACCUCUGGAAUUCUCGGGUGCCAA | 0.655 |
| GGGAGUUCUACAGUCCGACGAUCUUUUUCUUAACAAGUUAGAAAAUUCAGCUCCUUUCUGUCCUGGAGCUAGCAAAGACUUGUGUGAUGCCUCCGAAGGGGCUCUGAGUUCUGGGGUGGGAGUUUUGCUCUCUUGGAAUUCUCGGGUGCCAA | 0.427 |
| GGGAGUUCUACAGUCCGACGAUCAGAUGACUGAAGUAUUUGUGAGCCACAUAUUGGGAGUUCUAGAUUUGAGUGAAUGGCAGGAAAGGGCCAUCUCCAUUGAGAUGAUUAAGUGAACCAAACUAGUUCUCAGAUGGAAUUCUCGGGUGCCAA | 0.548 |

Set 3 — target: CCNA2, cyclin fold, Cln2 fusion (human); method: yeast growth competition, sequencing; medium: yeast; setting: strong parent motif; baseline: not given; reading: higher = stronger binding
Starting sequence: CDKN1A docking peptide (human); SKACRRLFGPVDS; partner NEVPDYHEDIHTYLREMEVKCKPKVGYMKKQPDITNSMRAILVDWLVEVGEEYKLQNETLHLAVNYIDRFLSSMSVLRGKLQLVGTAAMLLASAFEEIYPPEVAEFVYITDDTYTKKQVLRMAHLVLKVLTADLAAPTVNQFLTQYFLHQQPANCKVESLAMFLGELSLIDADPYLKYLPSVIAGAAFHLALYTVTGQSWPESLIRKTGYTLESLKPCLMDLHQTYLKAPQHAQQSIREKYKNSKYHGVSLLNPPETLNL
| Change | normalised enrichment score |
| --- | --- |
| R5P | -0.29 |
| V11Q | 6.08 |
| K2Q | 4.89 |
| A3G | 2.24 |
| C4W | 1.86 |
| P10R | 4.74 |
| G9E | 5.88 |
| C4N | 3.28 |
| V11S | 6.13 |
| C4A | 5.44 |
| C4M | 3.37 |
| R6T | 4.18 |
| K2R | 5.76 |
| K2H | 5.32 |
| R6D | 1.3 |
| R5S | 0.595 |
| G9S | 5.5 |
| G9V | 5.86 |
| G9Y | 6.49 |
| V11E | 6.16 |
| P10N | 5.53 |
| P10E | 5.9 |
| L7R | 0.94 |
| R6Q | 5.49 |
| G9M | 5.67 |

Set 4 — method: DHFR PCA, deep sequencing; medium: yeast; added: (+)-ABA 0.11 µM; baseline: wild-type fitted maximum; reading: higher = stronger binding
Target: ABI1, truncated, D143A, DHFR fusion (Arabidopsis thaliana)
Setting: methotrexate growth selection, single substitutions
Starting sequence: PYL1, truncated, DHFR fusion (Arabidopsis thaliana); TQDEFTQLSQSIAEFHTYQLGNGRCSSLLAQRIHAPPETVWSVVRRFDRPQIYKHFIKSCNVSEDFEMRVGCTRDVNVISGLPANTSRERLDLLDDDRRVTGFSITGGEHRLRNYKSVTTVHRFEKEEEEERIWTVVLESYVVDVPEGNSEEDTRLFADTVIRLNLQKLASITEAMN
| Change | relative binding score [%] |
| --- | --- |
| L20V | 58.2 |
| A35F | -4 |
| G81P | 33.1 |
| A35S | 3.84 |
| V44H | -2.64 |
| A35H | -3.35 |
| Y18W | 25.8 |
| D153H | 1.18 |
| R90F | -2.2 |
